Measured values pooled from the literature.
Protocols differ between the studies behind these lines. Numbers after ± are the reported error.

CC(C)CC(O)(CC(C)C)c1cn(C(=O)N2CCCC2)nn1
SILAC ratio (mouse T-cells; protein abundance, unenriched SILAC proteomics, measured: TFG; 1 nM, 6 h, protein median; relative to: DMSO): 0.93

NC(=S)N/N=C/c1ccc(OCc2cccc(F)c2)cc1
catalase activity (OD450) (IMR-32; 300 µg/mL, 24 h; higher = more activity): 0.22 a.u.

O=C(C[Se]C(=O)c1cc2ccccc2s1)Nc1cccc(C(F)(F)F)c1
CC50 (NCI60 melanoma subpanel; cytotoxicity, inhibitor; five-dose): 6.15 µM

CC(C)[C@H](NC(=O)[C@H](CCCNC(=N)N)NC(=O)[C@@H]1CCCN1C(=O)[C@@H](NC(=O)[C@H](C)NC(=O)[C@H](Cc1ccc(O)cc1)NC(=O)[C@H](CCC(N)=O)NC(=O)[C@H](CCCCN)NC(=O)[C@H](CCCNC(=N)N)NC(=O)[C@@H]1CCCN1C(=O)[C@H](CCC(=O)O)NC(=O)[C@@H](NC(=O)[C@H](C)N)[C@@H](C)O)[C@@H](C)O)C(=O)N[C@@H](Cc1ccccc1)C(=O)N[C@@H](Cc1c[nH]c2ccccc12)C(=O)N[C@H](C(=O)N[C@@H](CC(=O)O)C(=O)N[C@@H](C)C(=O)N1CCC[C@H]1C(=O)NCC(=O)NCCOCCOCCOCCOCCOCCOCCOCCOCCOCCOCCOCCOCCC(=O)N[C@@H](CS)C(N)=O)[C@@H](C)O
selectivity ratio (SKOV3 ovarian cancer; cell binding, phage binding, measured: output/input phage; 10 min, 37 °C; relative to: control phage): 2.7 ± 1.1

COc1ccc2c(c1)c(CC(=O)[Se]CC(=O)Nc1cccc(C(F)(F)F)c1)c(C)n2C(=O)c1ccc(Cl)cc1
CC50 (NCI60 leukaemia subpanel; NCI60 five-dose screen): 10.8 µM

CC(C)(C)C(=O)OCOP(=O)(OCOC(=O)C(C)(C)C)C1CCCN(O)C1=O (stereo not drawn)
TGI (NCI-H23): 3.4 µM

O=C(O)c1ccc(-c2nc(-c3ccccc3Cl)c3sccn23)cc1
CD71-positive cells (HEL; flow cytometry; 0.01 mM): 76.6%

CSCC[C@H](NC(=O)[C@@H](NC(=O)[C@H](CCC(N)=O)NC(=O)[C@H](CO)NC(=O)[C@@H](N)C(C)C)[C@@H](C)O)C(=O)N[C@@H](CCCNC(=N)N)C(=O)N[C@@H](CCC(N)=O)C(=O)N[C@H](C(=O)N[C@@H](C)C(=O)N[C@H](C(=O)N1CCC[C@H]1C(=O)N[C@@H](CC(C)C)C(=O)N[C@@H](CC(C)C)C(=O)N[C@@H](Cc1c[nH]c2ccccc12)C(=O)N[C@@H](Cc1ccccc1)C(=O)N[C@@H](Cc1c[nH]c2ccccc12)C(=O)N[C@H](C(=O)NCC(=O)N[C@@H](CO)C(=O)N[C@@H](CC(C)C)C(=O)NCCOCCOCCOCCOCCOCCOCCOCCOCCOCCOCCOCCOCCC(=O)N[C@@H](CS)C(N)=O)[C@@H](C)O)C(C)C)[C@@H](C)O
selectivity ratio (HCC461; phage binding; relative to: targeting over control phage): 1.8 ± 0.64

Cc1cc(Oc2nc(N3CC[C@@H](c4ccncc4)C3)ncc2F)[nH]n1
IC50 (OVCAR-3; cell proliferation): 45.7 µM

For quick reference, copied from above:
CC(C)[C@H](NC(=O)[C@H](CCCNC(=N)N)NC(=O)[C@@H]1CCCN1C(=O)[C@@H](NC(=O)[C@H](C)NC(=O)[C@H](Cc1ccc(O)cc1)NC(=O)[C@H](CCC(N)=O)NC(=O)[C@H](CCCCN)NC(=O)[C@H](CCCNC(=N)N)NC(=O)[C@@H]1CCCN1C(=O)[C@H](CCC(=O)O)NC(=O)[C@@H](NC(=O)[C@H](C)N)[C@@H](C)O)[C@@H](C)O)C(=O)N[C@@H](Cc1ccccc1)C(=O)N[C@@H](Cc1c[nH]c2ccccc12)C(=O)N[C@H](C(=O)N[C@@H](CC(=O)O)C(=O)N[C@@H](C)C(=O)N1CCC[C@H]1C(=O)NCC(=O)NCCOCCOCCOCCOCCOCCOCCOCCOCCOCCOCCOCCOCCC(=O)N[C@@H](CS)C(N)=O)[C@@H](C)O
selectivity ratio (SKOV3 ovarian cancer; cell binding, phage binding, measured: output/input phage; 10 min, 37 °C; relative to: control phage): 2.7 ± 1.1
